# Measured values collected from several papers.
# Protocols differ between the studies behind these lines. ± gives the spread as reported.
# CA1: Carbonic anhydrase 1 (CA1, Homo sapiens, UniProt P00915)
# Sequence of UniProt P00915 (whole entry, looked up): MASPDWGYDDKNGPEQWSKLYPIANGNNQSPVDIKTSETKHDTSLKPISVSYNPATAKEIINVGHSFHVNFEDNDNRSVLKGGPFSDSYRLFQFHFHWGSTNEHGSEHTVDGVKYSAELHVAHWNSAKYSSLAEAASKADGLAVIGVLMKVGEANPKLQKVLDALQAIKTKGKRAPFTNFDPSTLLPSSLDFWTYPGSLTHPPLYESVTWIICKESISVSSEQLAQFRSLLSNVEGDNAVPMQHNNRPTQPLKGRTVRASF
# Mapk1: Mitogen-activated protein kinase 1 (Mapk1, Rattus norvegicus, UniProt P63086)
# Sequence of UniProt P63086 (whole entry, looked up): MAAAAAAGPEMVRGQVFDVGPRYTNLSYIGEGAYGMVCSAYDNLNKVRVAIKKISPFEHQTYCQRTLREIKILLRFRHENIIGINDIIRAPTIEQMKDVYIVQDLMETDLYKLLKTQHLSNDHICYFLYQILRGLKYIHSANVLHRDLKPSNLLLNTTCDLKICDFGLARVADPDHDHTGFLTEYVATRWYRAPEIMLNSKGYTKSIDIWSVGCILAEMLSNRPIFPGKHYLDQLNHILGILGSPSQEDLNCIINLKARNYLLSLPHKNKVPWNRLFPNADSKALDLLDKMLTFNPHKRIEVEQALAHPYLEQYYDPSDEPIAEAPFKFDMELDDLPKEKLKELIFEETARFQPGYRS
# Transcriptional regulator PlcR: Transcriptional regulator PlcR (Bacillus thuringiensis, UniProt A0ACM8Q0N2)
# CYP1A2: Cytochrome P450 1A2 (CYP1A2, Homo sapiens, UniProt P05177)
# Sequence of UniProt P05177 (whole entry, looked up): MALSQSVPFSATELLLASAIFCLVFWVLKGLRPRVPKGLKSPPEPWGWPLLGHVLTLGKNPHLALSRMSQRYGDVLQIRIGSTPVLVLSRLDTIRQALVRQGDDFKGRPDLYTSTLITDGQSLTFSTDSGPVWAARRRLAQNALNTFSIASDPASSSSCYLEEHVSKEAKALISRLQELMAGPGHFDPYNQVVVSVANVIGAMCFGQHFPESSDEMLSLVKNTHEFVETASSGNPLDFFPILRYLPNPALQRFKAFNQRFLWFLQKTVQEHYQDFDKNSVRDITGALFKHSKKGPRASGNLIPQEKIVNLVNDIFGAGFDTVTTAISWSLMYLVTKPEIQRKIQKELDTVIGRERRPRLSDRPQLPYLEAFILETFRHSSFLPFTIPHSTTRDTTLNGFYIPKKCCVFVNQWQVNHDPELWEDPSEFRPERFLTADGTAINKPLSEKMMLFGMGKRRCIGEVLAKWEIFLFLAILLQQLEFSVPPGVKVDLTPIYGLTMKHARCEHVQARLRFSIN
# PFF0160c: Dihydroorotate dehydrogenase (quinone), mitochondrial (PFF0160c, Plasmodium falciparum, UniProt Q08210)
# Sequence of UniProt Q9UKE5 (whole entry, looked up): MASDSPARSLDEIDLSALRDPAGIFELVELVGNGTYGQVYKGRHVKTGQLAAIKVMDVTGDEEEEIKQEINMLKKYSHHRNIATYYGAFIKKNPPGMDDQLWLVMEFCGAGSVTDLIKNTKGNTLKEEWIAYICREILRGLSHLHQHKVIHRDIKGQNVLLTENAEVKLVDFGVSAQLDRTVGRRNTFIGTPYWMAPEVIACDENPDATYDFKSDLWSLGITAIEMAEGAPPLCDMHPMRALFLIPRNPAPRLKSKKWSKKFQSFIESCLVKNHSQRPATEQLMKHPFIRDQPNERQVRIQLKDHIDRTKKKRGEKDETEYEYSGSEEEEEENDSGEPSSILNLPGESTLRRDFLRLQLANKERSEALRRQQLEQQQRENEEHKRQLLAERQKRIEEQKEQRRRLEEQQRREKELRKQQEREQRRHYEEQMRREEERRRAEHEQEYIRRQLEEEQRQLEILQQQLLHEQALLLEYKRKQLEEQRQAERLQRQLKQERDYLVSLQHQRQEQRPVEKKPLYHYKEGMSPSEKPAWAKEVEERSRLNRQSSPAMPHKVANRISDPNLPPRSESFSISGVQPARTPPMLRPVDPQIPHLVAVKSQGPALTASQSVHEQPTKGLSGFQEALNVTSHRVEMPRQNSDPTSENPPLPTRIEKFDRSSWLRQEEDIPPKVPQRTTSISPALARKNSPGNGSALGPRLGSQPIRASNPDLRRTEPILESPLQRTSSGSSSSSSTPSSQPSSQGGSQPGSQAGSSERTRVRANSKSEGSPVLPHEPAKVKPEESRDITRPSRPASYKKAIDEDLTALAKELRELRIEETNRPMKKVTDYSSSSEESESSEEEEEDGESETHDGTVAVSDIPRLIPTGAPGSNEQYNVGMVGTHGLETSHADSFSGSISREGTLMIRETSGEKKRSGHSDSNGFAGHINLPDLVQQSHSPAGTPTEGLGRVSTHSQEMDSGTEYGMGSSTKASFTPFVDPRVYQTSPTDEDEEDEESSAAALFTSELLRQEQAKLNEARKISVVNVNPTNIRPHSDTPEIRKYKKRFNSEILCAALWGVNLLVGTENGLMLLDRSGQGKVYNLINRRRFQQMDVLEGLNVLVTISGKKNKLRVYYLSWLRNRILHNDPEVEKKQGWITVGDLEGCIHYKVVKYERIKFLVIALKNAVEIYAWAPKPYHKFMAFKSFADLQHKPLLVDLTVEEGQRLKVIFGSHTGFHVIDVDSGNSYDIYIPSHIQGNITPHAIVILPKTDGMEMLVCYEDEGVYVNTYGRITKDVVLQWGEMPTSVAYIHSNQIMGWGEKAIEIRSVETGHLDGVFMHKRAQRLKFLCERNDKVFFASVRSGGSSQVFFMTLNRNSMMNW
# Sequence of UniProt P35462 (whole entry, looked up): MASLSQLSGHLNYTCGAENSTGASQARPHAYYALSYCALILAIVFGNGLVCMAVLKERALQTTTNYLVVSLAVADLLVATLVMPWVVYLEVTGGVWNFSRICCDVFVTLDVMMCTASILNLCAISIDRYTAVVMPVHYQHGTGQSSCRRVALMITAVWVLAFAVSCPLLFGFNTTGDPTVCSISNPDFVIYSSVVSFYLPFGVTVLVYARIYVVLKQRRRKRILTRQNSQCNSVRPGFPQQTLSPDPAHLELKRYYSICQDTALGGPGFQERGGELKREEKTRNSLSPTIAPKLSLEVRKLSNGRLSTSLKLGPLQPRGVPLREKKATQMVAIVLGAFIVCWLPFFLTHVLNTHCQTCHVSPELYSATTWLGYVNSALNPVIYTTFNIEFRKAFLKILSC
# Sequence of UniProt Q9UM73 (whole entry, unmodified, looked up): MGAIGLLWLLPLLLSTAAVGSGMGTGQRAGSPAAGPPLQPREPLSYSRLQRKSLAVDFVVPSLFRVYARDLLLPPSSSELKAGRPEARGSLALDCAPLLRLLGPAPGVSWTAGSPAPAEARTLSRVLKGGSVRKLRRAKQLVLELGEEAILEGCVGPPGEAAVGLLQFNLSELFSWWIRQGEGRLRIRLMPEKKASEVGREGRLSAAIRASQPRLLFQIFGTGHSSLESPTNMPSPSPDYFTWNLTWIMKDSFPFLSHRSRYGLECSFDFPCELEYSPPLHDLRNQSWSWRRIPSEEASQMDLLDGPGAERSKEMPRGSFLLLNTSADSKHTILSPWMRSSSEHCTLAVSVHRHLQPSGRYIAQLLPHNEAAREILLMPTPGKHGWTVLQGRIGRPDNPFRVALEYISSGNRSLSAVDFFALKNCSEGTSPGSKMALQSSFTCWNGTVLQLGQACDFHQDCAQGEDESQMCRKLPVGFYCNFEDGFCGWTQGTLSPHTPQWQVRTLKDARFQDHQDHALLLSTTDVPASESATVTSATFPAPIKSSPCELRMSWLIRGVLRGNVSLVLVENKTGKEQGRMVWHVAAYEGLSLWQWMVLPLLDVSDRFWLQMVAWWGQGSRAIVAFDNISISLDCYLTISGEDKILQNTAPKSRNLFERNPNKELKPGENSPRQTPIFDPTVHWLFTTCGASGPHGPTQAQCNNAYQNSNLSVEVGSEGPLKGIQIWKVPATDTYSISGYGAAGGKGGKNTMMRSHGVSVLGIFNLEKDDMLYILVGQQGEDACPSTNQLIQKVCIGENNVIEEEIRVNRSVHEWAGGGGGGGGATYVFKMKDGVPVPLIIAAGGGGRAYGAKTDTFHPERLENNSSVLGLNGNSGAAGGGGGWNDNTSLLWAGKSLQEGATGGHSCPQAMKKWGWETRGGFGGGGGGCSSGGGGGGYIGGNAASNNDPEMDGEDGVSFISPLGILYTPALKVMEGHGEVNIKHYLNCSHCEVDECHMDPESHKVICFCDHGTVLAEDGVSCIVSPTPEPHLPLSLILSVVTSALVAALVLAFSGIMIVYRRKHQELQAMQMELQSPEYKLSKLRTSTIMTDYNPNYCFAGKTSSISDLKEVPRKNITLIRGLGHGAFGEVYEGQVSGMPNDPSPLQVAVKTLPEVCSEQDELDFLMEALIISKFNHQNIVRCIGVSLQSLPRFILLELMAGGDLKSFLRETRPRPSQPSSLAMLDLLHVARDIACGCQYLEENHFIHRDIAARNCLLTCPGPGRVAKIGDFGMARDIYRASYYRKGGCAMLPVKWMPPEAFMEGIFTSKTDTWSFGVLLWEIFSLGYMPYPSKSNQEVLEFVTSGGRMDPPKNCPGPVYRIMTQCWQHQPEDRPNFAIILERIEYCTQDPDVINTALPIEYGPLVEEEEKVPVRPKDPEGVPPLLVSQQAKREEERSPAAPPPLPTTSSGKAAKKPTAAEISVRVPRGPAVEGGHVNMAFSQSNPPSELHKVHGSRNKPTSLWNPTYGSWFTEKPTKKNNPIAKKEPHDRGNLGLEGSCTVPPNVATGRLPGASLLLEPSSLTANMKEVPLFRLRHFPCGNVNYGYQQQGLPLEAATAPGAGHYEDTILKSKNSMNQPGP
# Sequence of UniProt P28065 (whole entry, looked up): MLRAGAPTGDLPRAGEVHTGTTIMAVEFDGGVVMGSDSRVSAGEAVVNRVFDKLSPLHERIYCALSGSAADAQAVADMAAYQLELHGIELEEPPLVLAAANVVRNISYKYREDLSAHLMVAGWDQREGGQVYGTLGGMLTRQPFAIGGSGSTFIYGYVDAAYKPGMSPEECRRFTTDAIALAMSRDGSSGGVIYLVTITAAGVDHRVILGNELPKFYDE
# Sequence of UniProt P40306 (whole entry, looked up): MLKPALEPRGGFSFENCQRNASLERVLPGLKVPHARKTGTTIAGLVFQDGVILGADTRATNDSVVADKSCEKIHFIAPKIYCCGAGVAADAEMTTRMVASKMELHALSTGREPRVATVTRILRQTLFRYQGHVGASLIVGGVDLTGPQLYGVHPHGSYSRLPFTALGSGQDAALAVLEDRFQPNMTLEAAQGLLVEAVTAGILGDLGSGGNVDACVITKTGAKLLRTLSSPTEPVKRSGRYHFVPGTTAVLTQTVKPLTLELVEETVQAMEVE
SMILES,target or system,test,test system,conditions,endpoint,result
O=C(O)CCn1c(=O)oc2cc(Cl)c(Cl)cc21,"Prostaglandin G/H synthase 2 (PTGS2, Homo sapiens, UniProt P35354)",inhibitor,,,IC50,> 100 µM
O=C(O)C1=C[C@H](O)[C@@H](NC(=O)c2ccc(-c3ccccc3)cc2)[C@H]([C@H](O)[C@H](O)CO)O1,"Sialidase-4 (Homo sapiens, UniProt Q8WWR8)","enzyme activity, inhibitor",,,IC50,> 500 µM
O=S(=O)(N/N=C/c1ccc(OS(=O)(=O)c2ccccc2)cc1)c1cc(Cl)ccc1Cl,CA1,"enzyme activity, inhibitor, absorbance",,,IC50,0.0305 µM
O=C1NC2(CC2)COc2ncc(F)cc2[C@H]2COCCN2c2ccn3ncc1c3n2,,,"Sprague-Dawley rat, male, serum","oral, 2.5 mg/kg/day, 4 weeks daily, end of recovery period",total cholesterol,1.34 ± 0.28 mmol/L
CC[C@H](C)[C@H](NC(=O)[C@H](CCCCN)NC(=O)[C@H](CC(C)C)NC(=O)[C@H](C)NC(=O)[C@H](C)NC(=O)[C@H](C)NC(=O)[C@H](CCCCN)NC(=O)[C@@H](NC(=O)[C@H](CCCCN)NC(=O)[C@H](CC(N)=O)NC(=O)[C@H](CCCCN)NC(=O)[C@@H](NC(=O)[C@H](C)NC(=O)[C@@H](N)Cc1ccc(O)cc1)[C@@H](C)O)C(C)C)C(=O)N[C@H](C(=O)N[C@@H](CCCNC(=N)N)C(=O)O)[C@@H](C)CC,Mapk1,"enzyme activity, inhibitor, fluorescence",,pH 7.4,IC50,> 200 µM
CCCN(Cc1nnc(-c2ccco2)o1)C(=O)C1CCCN(C(=O)c2ccc(Cl)cc2)C1 (stereo not drawn),"Dihydroorotate dehydrogenase (quinone), mitochondrial (PFF0160c, Plasmodium falciparum, UniProt Q08210, E182D)","enzyme activity, inhibitor, absorbance",,,IC50,1.03 µM
CSCC[C@H](N)C(=O)N[C@@H](CC(=O)O)C(=O)N[C@@H](CC(C)C)C(=O)N1CCC[C@H]1C(=O)N[C@@H](Cc1ccccc1)C(=O)N[C@@H](CCC(=O)O)C(=O)N[C@@H](C)C(N)=O,Transcriptional regulator PlcR,"reporter gene, inhibitor, lacZ reporter",407 Cry−,,IC50,0.482 ± 0.031 µM
CCc1nnc(-c2c(OC)cc(-c3cnc4cc(-c5cnn(C)c5)ccn34)cc2OC)o1,CYP1A2,"enzyme activity, inhibitor",,,IC50,> 10 µM
COc1cc(CN2CCN(C(=O)Cc3ccccc3)CC2)cc(OC)c1O,"Alpha-synuclein (SNCA, Homo sapiens, UniProt P37840)","seeded fibril growth, FlAsH fluorescence",,"3 h, 37 °C, together with: 3 µM C2-asyn monomer, 1 µM seeds",IC50,4 ± 1 µM
CN1CCCCC1C(=O)NC(Cc1ccc(-c2ccccc2)cc1)B(O)O (stereo not drawn),"Proteasome subunit beta type-9 / Proteasome subunit beta type-10 (Homo sapiens, UniProt P28065+P40306)","β1i activity, inhibitor",,"immunoproteasome, together with: Ac-PAL-AMC",IC50,> 10 µM
CC[C@H](C)[C@H](NC(=O)[C@H](CC(C)C)NC(=O)[C@@H]1CCCN1C(=O)[C@H](CCCNC(=N)N)NC(=O)[C@@H]1CCCN1C(=O)[C@H](CCCCN)NC(=O)[C@H](Cc1c[nH]cn1)NC(=O)[C@H](CCCNC(=N)N)NC(=O)[C@H](Cc1ccccc1)NC(=O)[C@H](CCCCN)NC(=O)[C@H](CCCCN)NC(=O)[C@H](C)NC(=O)[C@@H](N)Cc1ccc(O)cc1)C(=O)N[C@@H](CC(C)C)C(=O)N1CCC[C@H]1C(=O)N1CCC[C@H]1C(=O)O,Mapk1,"enzyme activity, inhibitor, fluorescence",,pH 7.4,IC50,2.08 µM
C=C1NC(=O)[C@H]([C@@H](C)O)NC(=O)[C@H](CSCC(N)=O)NC(=O)CNC(=O)[C@H](Cc2ccc(O)cc2)NC(=O)[C@H]([C@@H](C)O)NC(=O)[C@H](CCC(N)=O)NC(=O)[C@H](CO)NC(=O)CNC(=O)[C@H](CC(C)C)NC(=O)[C@H](Cc2c[nH]c3ccccc23)NC(=O)[C@H](Cc2c[nH]c3ccccc23)NC(=O)c2ccc(-c3nc(C(=O)OC)cs3)nc2-c2csc1n2,"TRAF2 and NCK-interacting protein kinase (TNIK, Homo sapiens, UniProt Q9UKE5)","enzyme activity, inhibitor, ADP detection",,,IC50,4.6 µM
CSCC[C@H](N)C(=O)N[C@@H](CC(=O)O)C(=O)N[C@@H](CC(C)C)C(=O)N1CCC[C@H]1C(=O)N[C@@H](Cc1ccccc1)C(=O)N[C@@H](C)C(=O)N[C@@H](Cc1ccccc1)C(N)=O,Transcriptional regulator PlcR,"reporter gene, inhibitor, lacZ reporter",407 Cry−,,IC50,0.485 ± 0.037 µM
O=S(=O)(N/N=C/c1ccc(OS(=O)(=O)c2ccc(Br)cc2)cc1)c1cc(Cl)ccc1Cl,CA1,"enzyme activity, inhibitor, absorbance",,,IC50,0.237 µM
CC12CCC3C(CCC4CC(O)CCC43C)C1CCC2C#N (stereo not drawn),"Cannabinoid receptor 1 (CNR1, Homo sapiens, UniProt P21554)","cAMP, antagonist",,,IC50,4.89 µM
C[C@]12C(c3cccnc3)=C[C@H]3[C@@H](CCC4=C[C@H](O)CC[C@@]43C)[C@@H]1CC[C@@H]2O,"7-alpha-hydroxycholest-4-en-3-one 12-alpha-hydroxylase (Homo sapiens, UniProt Q9UNU6, W281F)",enzyme activity,,"W281F mutant, together with: 7α-hydroxycholest-4-en-3-one",IC50,10.2 µM
O=C(CN1C(=O)C2(CCN(C(=O)c3cnc4[nH]ncc4c3)CC2)c2cccc(F)c21)NCC(F)(F)F,"Epithelial discoidin domain-containing receptor 1 (DDR1, Homo sapiens, UniProt Q08345)",ligand displacement,,,IC50,15.2 µM
Cc1ccc2c(n1)c(-c1cccc(S(C)(=O)=O)c1)c(C)n2C/C(F)=C/CN,CYP1A2,"enzyme activity, inhibitor","human, liver microsomes",,IC50,> 10 µM
CC[C@H](C)[C@H](NC(=O)[C@H](CCCCN)NC(=O)[C@H](CC(C)C)NC(=O)CNC(=O)[C@@H]1CCCN1C(=O)[C@H](CC(N)=O)NC(=O)[C@H](CCCNC(=N)N)NC(=O)[C@H](CCCCN)NC(=O)[C@H](CCCCN)NC(=O)CNC(=O)[C@H](CCCCN)NC(=O)[C@H](CO)NC(=O)[C@H](C)NC(=O)[C@@H](N)Cc1ccc(O)cc1)C(=O)N1CCC[C@H]1C(=O)N[C@@H](CCCCN)C(=O)O,Mapk1,"enzyme activity, inhibitor, fluorescence",,pH 7.4,IC50,24 µM
CCCCCCCCCCCCCCCCCC(=O)NC[C@H]1CC[C@H](C(=O)N[C@@H](CCC(=O)NCCCOCCOCCOCCCNC(=O)COCC(=O)N[C@@H](Cc2ccc(O)cc2)C(=O)NC(C)(Cc2ccccc2)C(=O)N[C@@H](CC(C)C)C(=O)N[C@@H](CCCC)C(=O)N[C@@H](CCCNC(=N)N)C(=O)N2CCC[C@H]2C(=O)N[C@@H](CCCNC(=N)NC)C(=O)N[C@@H](CC(N)=O)C(N)=O)C(=O)O)CC1 (stereo partly drawn),"Neuromedin-U receptor 1 (NMUR1, Homo sapiens, UniProt Q9HB89)","ligand displacement, radioligand",,,IC50,0.00295 µM
CCN(N=Cc1cnc2ccc(Br)cn12)S(=O)(=O)c1cc([N+](=O)[O-])ccc1C,"Phosphatidylinositol 4,5-bisphosphate 3-kinase catalytic subunit beta isoform (PIK3CB, Homo sapiens, UniProt P42338)","enzyme activity, inhibitor",,,IC50,1.11 µM
CC(C)[C@H](NC(=O)[C@H](CCCCN)NC(=O)[C@@H](NC(=O)[C@H](Cc1ccc(O)cc1)NC(=O)[C@H](CC(N)=O)NC(=O)[C@H](CCCNC(=N)N)NC(=O)[C@H](CCC(=O)O)NC(=O)[C@H](Cc1c[nH]cn1)NC(=O)[C@H](CCCNC(=N)N)NC(=O)[C@@H](NC(=O)[C@H](C)NC(=O)[C@@H](N)Cc1ccc(O)cc1)[C@@H](C)O)[C@@H](C)O)C(=O)N[C@@H](CC(N)=O)C(=O)N[C@@H](Cc1ccccc1)C(=O)N[C@@H](CS)C(=O)N[C@@H](CCCCN)C(=O)O,Mapk1,"enzyme activity, inhibitor, fluorescence",,pH 7.4,IC50,> 200 µM
O=C(COP(=O)(O)O)C(O)C(O)C(O)COP(=O)(O)O (stereo not drawn),"Fructose-bisphosphate aldolase (Candida albicans, UniProt Q9URB4)","enzyme activity, inhibitor, absorbance",,,IC50,3.87 µM
CC(C)[C@H]1NC(=O)C[C@H]2/C=C/CCSSC[C@@H](NC1=O)C(=O)N[C@H](Cc1cccc3ccccc13)C(=O)NCC(=O)O2,"ALK tyrosine kinase receptor (ALK, Homo sapiens, UniProt Q9UM73, R1275Q)","enzyme activity, inhibitor",,10 µM,inhibition,-6.6%
O=C(CCc1ccc(Br)cc1)N[C@H]1CCOC1=O,"Transcriptional activator protein LasR (lasR, Pseudomonas aeruginosa, UniProt P25084)","reporter gene, antagonist","Escherichia coli, JLD271 with LasR plasmid",together with: OdDHL 10 nM,IC50,0.74 µM
CC[C@H](C)[C@H](NC(=O)[C@H](CCCCN)NC(=O)[C@H](CC(C)C)NC(=O)[C@@H]1CCCN1C(=O)[C@@H]1CCCN1C(=O)[C@@H](NC(=O)[C@H](CCCCN)NC(=O)[C@H](CCCNC(=N)N)NC(=O)[C@@H](NC(=O)[C@H](CCC(N)=O)NC(=O)[C@H](C)NC(=O)[C@@H](N)Cc1ccc(O)cc1)C(C)C)C(C)C)C(=O)N1CCC[C@H]1C(=O)N[C@H](C(=O)N[C@@H](CO)C(=O)N[C@@H](CCCNC(=N)N)C(=O)O)C(C)C,Mapk1,"enzyme activity, inhibitor, fluorescence",,pH 7.4,IC50,> 200 µM
CC(C)(C)C(=O)OCOP(=O)(OCOC(=O)C(C)(C)C)C1CCCN(O)C1=O (stereo not drawn),SF-295,,,,log TGI,> -4 log M
C[C@H](Oc1ccc(C(=O)c2ccc(F)cc2)cc1)C(=O)N1CCc2ccc(C(F)(F)F)cc21,PFF0160c,"enzyme activity, inhibitor, absorbance",,,IC50,0.855 µM
CN(C)[C@H]1C[C@@]23CC[C@@]4(O2)C(=CC[C@]2(C)[C@@H](c5ccc6ccncc6c5)CC[C@H]24)C=C3[C@@H](O)[C@@H]1O,"Interleukin-1 receptor-associated kinase 4 (IRAK4, Homo sapiens, UniProt Q9NWZ3)","ATP probe labelling, inhibitor, KiNativ profiling",,1 µM,inhibition,9.8%
C[C@@H]1COCCN1c1nc(NCc2cccnc2C(F)(F)F)c2cccnc2n1,"Potassium voltage-gated channel subfamily KQT member 1, with KCNE1 (KCNQ1, Homo sapiens, UniProt P51787)",inhibitor,,,IC50,> 33 µM
CC(C)C[C@H](NC(=O)[C@H](CCCCN)NC(=O)[C@H](CC(C)C)NC(=O)[C@H](CCCCN)NC(=O)[C@H](CCCNC(=N)N)NC(=O)[C@@H]1CCCN1C(=O)[C@H](CCCNC(=N)N)NC(=O)CNC(=O)[C@H](CCCNC(=N)N)NC(=O)[C@H](CCCCN)NC(=O)CNC(=O)[C@@H]1CCCN1C(=O)[C@H](C)NC(=O)[C@@H](N)Cc1ccc(O)cc1)C(=O)N[C@@H](CS)C(=O)N[C@@H](CCCCN)C(=O)O,Mapk1,"enzyme activity, inhibitor, fluorescence",,pH 7.4,IC50,6.11 µM
CS(C)(=O)=Nc1ccc(-c2ccc(-c3nc4cc(O[C@@H]5CO[C@H]6[C@@H]5OC[C@H]6O)[nH]c4cc3F)cc2)cc1,thyroid hormone receptor,binding,,10 µM,inhibition,6%
O=S(=O)(F)c1cccc(S(=O)(=O)Nc2ccc(C3CC3)c(F)c2)c1,"GTPase KRas, with RAF (KRAS, Homo sapiens, UniProt P01116)","RAF-KRAS interaction, inhibitor, NanoBRET",HEK293T,24 h,IC50,47 ± 8 µM
COc1ccccc1-n1ccnc1SCC(=O)Nc1cc(C(F)(F)F)ccc1Cl,PFF0160c,"enzyme activity, inhibitor, absorbance",,,IC50,< 0.01 µM
CC(C)C[C@H](NC(=O)[C@@H](NC(=O)[C@H](CC(C)C)NC(=O)[C@H](CO)NC(=O)[C@@H](NC(=O)[C@H](CC(N)=O)NC(=O)[C@H](CO)NC(=O)CNC(=O)[C@H](CCCNC(=N)N)NC(=O)[C@H](CCCNC(=N)N)NC(=O)[C@H](CCC(=O)O)NC(=O)[C@H](CCC(N)=O)NC(=O)[C@H](CC(C)C)NC(=O)CNC(=O)[C@H](C)NC(=O)[C@@H](N)Cc1ccc(O)cc1)C(C)C)[C@@H](C)O)C(=O)O,Mapk1,"enzyme activity, inhibitor, fluorescence",,pH 7.4,IC50,35.1 µM
Cc1[nH]c(C)c(S(=O)(=O)NC2CCCCC2)c1C(=O)N1CCCC1,"D(3) dopamine receptor (DRD3, Homo sapiens, UniProt P35462)","β-arrestin recruitment, antagonist, PathHunter",,together with: dopamine EC80,IC50,> 100 µM

# Repeated from above:
SMILES,target or system,test,test system,conditions,endpoint,result
CSCC[C@H](N)C(=O)N[C@@H](CC(=O)O)C(=O)N[C@@H](CC(C)C)C(=O)N1CCC[C@H]1C(=O)N[C@@H](Cc1ccccc1)C(=O)N[C@@H](C)C(=O)N[C@@H](Cc1ccccc1)C(N)=O,Transcriptional regulator PlcR,"reporter gene, inhibitor, lacZ reporter",407 Cry−,,IC50,0.485 ± 0.037 µM
CCN(N=Cc1cnc2ccc(Br)cn12)S(=O)(=O)c1cc([N+](=O)[O-])ccc1C,"Phosphatidylinositol 4,5-bisphosphate 3-kinase catalytic subunit beta isoform (PIK3CB, Homo sapiens, UniProt P42338)","enzyme activity, inhibitor",,,IC50,1.11 µM
CC12CCC3C(CCC4CC(O)CCC43C)C1CCC2C#N (stereo not drawn),"Cannabinoid receptor 1 (CNR1, Homo sapiens, UniProt P21554)","cAMP, antagonist",,,IC50,4.89 µM
